{"data": "Experimental data pooled from the literature", "note": "± gives the spread as reported.", "chain of UniProt P31946 (whole entry, looked up)": "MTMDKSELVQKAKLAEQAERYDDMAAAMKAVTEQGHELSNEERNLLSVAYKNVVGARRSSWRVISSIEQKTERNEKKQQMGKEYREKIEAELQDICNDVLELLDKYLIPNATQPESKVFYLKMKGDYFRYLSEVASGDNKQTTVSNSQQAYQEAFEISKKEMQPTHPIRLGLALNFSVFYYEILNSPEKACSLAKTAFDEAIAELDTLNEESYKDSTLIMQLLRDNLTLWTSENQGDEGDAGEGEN", "chain of UniProt Q9JK71 (whole entry, looked up)": "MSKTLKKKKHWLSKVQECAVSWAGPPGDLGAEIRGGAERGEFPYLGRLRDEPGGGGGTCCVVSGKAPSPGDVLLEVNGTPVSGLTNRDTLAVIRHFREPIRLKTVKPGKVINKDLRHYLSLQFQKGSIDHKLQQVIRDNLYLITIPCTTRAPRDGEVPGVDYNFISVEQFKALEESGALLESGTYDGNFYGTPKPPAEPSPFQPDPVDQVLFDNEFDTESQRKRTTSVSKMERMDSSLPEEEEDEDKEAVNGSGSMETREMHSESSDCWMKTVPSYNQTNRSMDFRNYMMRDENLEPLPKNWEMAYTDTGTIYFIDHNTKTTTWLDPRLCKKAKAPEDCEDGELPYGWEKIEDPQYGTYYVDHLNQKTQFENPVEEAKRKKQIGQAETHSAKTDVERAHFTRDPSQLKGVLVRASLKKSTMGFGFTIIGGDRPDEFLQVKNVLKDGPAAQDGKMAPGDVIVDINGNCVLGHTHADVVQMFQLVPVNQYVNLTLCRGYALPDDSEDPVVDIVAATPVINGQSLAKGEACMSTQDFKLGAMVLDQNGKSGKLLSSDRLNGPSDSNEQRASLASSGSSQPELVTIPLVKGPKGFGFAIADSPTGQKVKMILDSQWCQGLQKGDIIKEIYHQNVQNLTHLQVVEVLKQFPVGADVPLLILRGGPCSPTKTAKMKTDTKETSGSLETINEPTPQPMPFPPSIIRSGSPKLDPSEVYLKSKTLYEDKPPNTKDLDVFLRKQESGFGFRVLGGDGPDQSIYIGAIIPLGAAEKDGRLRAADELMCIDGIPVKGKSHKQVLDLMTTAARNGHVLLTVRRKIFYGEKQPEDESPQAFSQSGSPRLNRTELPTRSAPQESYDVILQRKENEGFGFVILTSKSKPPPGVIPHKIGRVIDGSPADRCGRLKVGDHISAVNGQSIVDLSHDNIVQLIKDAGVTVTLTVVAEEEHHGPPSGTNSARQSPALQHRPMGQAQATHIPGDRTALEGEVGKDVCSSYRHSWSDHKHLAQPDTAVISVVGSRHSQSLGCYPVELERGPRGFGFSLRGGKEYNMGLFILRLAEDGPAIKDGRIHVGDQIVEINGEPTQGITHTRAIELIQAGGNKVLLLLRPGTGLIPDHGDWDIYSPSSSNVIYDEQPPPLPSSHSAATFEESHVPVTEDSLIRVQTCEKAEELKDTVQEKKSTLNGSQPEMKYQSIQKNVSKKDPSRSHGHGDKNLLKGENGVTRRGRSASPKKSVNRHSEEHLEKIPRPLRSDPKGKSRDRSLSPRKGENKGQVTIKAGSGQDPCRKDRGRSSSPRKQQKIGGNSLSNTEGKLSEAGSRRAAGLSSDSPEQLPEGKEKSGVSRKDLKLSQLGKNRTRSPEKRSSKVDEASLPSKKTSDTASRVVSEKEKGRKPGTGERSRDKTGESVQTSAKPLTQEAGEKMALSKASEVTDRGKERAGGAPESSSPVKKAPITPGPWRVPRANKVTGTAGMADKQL", "chain of UniProt P08238 (whole entry, looked up)": "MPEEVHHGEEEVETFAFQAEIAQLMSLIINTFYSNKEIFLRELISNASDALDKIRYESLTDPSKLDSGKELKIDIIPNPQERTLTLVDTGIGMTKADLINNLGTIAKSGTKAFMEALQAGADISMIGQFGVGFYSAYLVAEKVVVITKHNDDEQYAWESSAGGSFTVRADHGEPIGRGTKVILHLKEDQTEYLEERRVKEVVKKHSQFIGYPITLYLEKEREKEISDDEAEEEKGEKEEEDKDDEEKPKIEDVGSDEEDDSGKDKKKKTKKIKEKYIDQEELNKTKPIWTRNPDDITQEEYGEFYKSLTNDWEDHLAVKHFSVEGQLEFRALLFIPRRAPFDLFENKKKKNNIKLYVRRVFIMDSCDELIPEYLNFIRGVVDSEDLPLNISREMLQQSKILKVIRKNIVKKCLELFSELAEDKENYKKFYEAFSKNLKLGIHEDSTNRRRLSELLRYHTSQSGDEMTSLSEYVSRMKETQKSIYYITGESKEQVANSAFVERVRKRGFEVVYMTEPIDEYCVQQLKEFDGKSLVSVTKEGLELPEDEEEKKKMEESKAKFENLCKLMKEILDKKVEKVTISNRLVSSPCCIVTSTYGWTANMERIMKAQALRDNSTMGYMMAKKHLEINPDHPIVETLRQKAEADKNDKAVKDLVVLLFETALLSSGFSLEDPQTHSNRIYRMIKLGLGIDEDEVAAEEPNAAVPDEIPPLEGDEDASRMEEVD", "chain of UniProt Q13464 (whole entry, looked up)": "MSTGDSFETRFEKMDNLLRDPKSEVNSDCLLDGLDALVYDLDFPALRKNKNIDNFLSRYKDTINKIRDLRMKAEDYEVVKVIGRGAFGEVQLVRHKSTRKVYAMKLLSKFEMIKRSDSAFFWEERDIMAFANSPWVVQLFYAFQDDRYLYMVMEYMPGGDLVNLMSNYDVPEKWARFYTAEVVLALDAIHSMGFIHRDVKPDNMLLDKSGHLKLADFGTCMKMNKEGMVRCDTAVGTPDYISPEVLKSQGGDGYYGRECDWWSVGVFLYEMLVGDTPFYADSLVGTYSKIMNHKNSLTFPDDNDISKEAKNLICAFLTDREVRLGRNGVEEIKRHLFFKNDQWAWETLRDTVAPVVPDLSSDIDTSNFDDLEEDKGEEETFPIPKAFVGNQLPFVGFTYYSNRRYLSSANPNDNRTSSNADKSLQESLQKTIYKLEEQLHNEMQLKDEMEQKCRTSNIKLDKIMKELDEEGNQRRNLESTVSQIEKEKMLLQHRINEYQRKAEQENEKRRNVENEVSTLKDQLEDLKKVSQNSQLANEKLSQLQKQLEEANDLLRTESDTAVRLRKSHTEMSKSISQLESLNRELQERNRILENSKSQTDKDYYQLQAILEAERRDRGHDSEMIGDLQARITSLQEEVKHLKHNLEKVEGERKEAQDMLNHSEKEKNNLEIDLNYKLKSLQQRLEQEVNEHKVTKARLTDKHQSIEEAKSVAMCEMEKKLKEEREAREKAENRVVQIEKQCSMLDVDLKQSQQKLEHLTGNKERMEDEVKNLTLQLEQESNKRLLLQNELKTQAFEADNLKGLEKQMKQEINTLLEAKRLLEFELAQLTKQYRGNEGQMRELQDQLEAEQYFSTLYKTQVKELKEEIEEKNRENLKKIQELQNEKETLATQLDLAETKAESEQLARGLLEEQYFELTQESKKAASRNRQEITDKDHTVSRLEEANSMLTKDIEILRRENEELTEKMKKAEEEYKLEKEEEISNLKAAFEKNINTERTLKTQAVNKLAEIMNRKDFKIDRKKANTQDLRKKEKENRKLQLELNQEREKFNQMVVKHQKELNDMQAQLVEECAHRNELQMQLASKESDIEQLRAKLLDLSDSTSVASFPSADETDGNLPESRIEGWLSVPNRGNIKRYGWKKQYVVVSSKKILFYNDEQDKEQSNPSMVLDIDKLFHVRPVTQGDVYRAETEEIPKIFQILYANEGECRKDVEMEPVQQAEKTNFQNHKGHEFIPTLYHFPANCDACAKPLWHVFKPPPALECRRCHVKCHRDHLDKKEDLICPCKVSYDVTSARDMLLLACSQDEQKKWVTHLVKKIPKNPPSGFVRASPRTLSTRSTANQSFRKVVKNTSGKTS", "chain of UniProt P33913 (whole entry, unmodified, looked up)": "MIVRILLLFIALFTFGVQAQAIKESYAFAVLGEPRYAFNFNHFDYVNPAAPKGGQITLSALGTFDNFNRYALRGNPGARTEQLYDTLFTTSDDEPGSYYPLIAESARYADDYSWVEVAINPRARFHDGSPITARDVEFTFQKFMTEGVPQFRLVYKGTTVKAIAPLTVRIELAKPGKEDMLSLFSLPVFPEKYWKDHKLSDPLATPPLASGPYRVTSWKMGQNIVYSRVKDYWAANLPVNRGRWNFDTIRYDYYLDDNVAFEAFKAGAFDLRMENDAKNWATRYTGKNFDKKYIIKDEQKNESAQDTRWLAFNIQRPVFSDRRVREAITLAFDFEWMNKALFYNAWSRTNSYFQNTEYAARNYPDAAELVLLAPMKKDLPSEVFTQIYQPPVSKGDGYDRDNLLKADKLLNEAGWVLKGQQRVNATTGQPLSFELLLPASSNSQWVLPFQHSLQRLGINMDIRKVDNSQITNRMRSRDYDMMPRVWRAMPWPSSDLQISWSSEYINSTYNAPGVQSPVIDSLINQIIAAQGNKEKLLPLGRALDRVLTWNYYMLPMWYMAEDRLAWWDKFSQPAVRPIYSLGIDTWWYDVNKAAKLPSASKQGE", "chain of UniProt P01106 (whole entry, looked up)": "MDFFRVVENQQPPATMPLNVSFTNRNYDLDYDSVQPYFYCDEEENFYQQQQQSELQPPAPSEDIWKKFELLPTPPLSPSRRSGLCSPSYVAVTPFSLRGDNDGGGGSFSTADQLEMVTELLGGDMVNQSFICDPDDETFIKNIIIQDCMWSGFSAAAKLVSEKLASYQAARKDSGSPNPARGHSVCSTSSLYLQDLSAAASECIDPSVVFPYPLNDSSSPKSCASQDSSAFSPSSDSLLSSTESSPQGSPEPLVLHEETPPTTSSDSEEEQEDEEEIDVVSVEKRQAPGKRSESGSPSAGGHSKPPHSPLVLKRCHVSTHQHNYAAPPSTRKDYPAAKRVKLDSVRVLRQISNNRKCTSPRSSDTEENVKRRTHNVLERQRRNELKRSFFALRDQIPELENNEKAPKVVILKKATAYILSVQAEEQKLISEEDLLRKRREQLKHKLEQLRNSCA"}
{"Structure (SMILES)": "C=C1NC(=O)[C@H](CCSC)NC(=O)[C@H](Cc2ccc(O)cc2)NC(=O)[C@H](CC(N)=O)NC(=O)CNC(=O)CNC(=O)[C@H](CC(N)=O)NC(=O)[C@H](Cc2c[nH]cn2)NC(=O)[C@H](CCC(=O)O)NC(=O)[C@H](Cc2ccc(O)cc2)NC(=O)[C@H](CO)NC(=O)[C@H](Cc2c[nH]c3ccccc23)NC(=O)[C@H](Cc2c[nH]c3ccccc23)NC(=O)c2ccc(-c3nc(C(=O)OC)cs3)nc2-c2csc1n2", "target": "TNIK (Homo sapiens, UniProt Q9UKE5)", "assay": "binding, SPR", "Kd [nM]": 58}
{"Structure (SMILES)": "CSCC[C@H](NC=O)C(=O)N[C@@H](CCCNC(=N)N)C(=O)N[C@H](C(=O)NCC(=O)N[C@@H](CC(N)=O)C(=O)N[C@@H](C)C(=O)N[C@@H](CC(N)=O)C(=O)NCC(=O)NCC(=O)N[C@@H](CCCCNC(=S)Nc1ccc2c(c1)C(=O)OC21c2ccc(O)cc2Oc2cc(O)ccc21)C(=O)O)[C@@H](C)O", "target": "Uncharacterized protein YejA (yejA, Escherichia coli, UniProt P33913, Y509F)", "assay": "binding, fluorescence polarisation", "conditions": "YejA variant Y491F", "Kd [nM]": "11300 ± 360"}
{"Structure (SMILES)": "CCCc1cc2cc(-n3c4c(c5ccccc53)C(=O)CC(C)(C)C4)cc(N3CCC(O)CC3)c2c(=O)[nH]1", "target": "HSP90AB1 (Homo sapiens, UniProt P08238)", "assay": "fluorescence polarization", "conditions": "24 h, 4 °C, together with: FITC-geldanamycin tracer", "Kd [nM]": 5720}
{"Structure (SMILES)": "CC[C@H](C)[C@H](NC(=O)[C@H](CO)NC(=S)Nc1ccc2c(c1)C(=O)OC21c2ccc(O)cc2Oc2cc(O)ccc21)C(=O)N[C@@H](CCC(=O)O)C(=O)N[C@@H](CCCCN)C(=O)NCC(=O)NCC(=O)N[C@@H](CCP(=O)(O)O)C(=O)N[C@@H](CC(C)C)C(=O)N1CCC[C@H]1C(=O)N[C@@H](CCCCN)C(=O)N[C@H](C(=O)N[C@@H](Cc1c[nH]c2ccccc12)C(=O)N[C@@H](CC(C)C)C(=O)N[C@H](C(=O)N1CCC[C@H]1C(=O)N[C@@H](CCCNC(=N)N)C(=O)O)C(C)C)C(C)C", "target": "14-3-3 protein beta/alpha (Homo sapiens, UniProt P31946)", "assay": "binding, fluorescence anisotropy", "conditions": "pH 7.5, FITC-labelled phosphopeptide titration", "Kd [nM]": 55200}
{"Structure (SMILES)": "CC(C)[C@@H]1NC(=O)[C@H](Cc2ccccc2)NC(=O)CSC[C@@H](C(N)=O)NC(=O)[C@H](CCC(=O)O)NC(=O)[C@H](CO)NC(=O)[C@H](Cc2c[nH]c3ccccc23)NC(=O)[C@H](C(C)C)NC(=O)[C@H](C(C)C)NC(=O)[C@H](Cc2ccc(O)cc2)NC(=O)[C@H](CC(=O)O)NC(=O)[C@H](Cc2c[nH]c3ccccc23)NC(=O)[C@H](Cc2ccc(O)cc2)NC(=O)[C@H](Cc2c[nH]c3ccccc23)NC(=O)[C@H](CCC(=O)O)NC1=O", "target": "Interleukin-1 receptor-like 2, D1-D2 domains (IL1RL2, Homo sapiens, UniProt Q9HB29)", "assay": "SPR", "conditions": "IL-36R domains D1-D2", "Kd [nM]": "1110 ± 86"}
{"Structure (SMILES)": "CC(C)C[C@H](NC(=O)[C@H](CO)NC(=O)[C@@H]1CCCN1C(=O)[C@H](CCC(N)=O)NC(=O)[C@@H](NC(=O)[C@H](C)NC(=O)[C@H](CCCCN)NC(=O)[C@H](CC(C)C)NC(=O)[C@H](Cc1ccc(O)cc1)NC(=O)[C@H](COP(=O)(O)O)NC(=O)[C@H](CCC(=O)O)NC(=O)[C@H](CCCNC(=N)N)NC(=O)[C@H](CCCNC(=N)N)NC(=O)[C@H](C)NC(=O)[C@H](C)N)[C@@H](C)O)C(=O)O", "target": "Membrane-associated guanylate kinase, WW and PDZ domain-containing protein 3 (Magi3, Rattus norvegicus, UniProt Q9JK71)", "assay": "isothermal titration calorimetry", "system": "rat", "conditions": "pH 8.0, 25 °C", "Kd [nM]": "400 ± 10"}
{"Structure (SMILES)": "CC[C@H](C)[C@H](NC(=O)[C@H](CCC(=O)O)NC(=O)[C@H](C)NC(=O)[C@H](CCCCN)NC(=O)[C@H](CC(C)C)NC(=O)[C@@H](NC(=O)[C@H](CCC(=O)O)NC(=O)[C@@H](NC(=O)[C@H](CCC(=O)O)NC(=O)[C@H](CC(=O)O)NC(=O)[C@H](C)NC(=O)[C@@H](NC(=O)[C@@H](NC(=O)[C@H](C)NC(=O)[C@H](C)NC(C)=O)C(C)C)[C@@H](C)O)[C@@H](C)O)C(C)C)C(=O)N[C@H]1CSCc2cccc(c2)CSC[C@@H](C(=O)N[C@@H](CCC(N)=O)C(=O)N[C@H](C(=O)N[C@@H](CCC(N)=O)C(=O)N[C@@H](CCC(=O)O)C(=O)N[C@@H](CCC(=O)O)C(=O)N[C@@H](CC(=O)O)C(=O)N2CCC[C@H]2C(=O)N[C@@H](CC(N)=O)C(=O)NCCC(=O)N[C@@H](CCCCNC(=O)CCCC[C@@H]2SC[C@@H]3NC(=O)N[C@@H]32)C(N)=O)C(C)C)NC(=O)[C@H](C(C)C)NC(=O)[C@H](C)NC(=O)[C@H](CCCCN)NC1=O", "target": "Myc proto-oncogene protein, bHLH-LZ region (MYC, Homo sapiens, UniProt P01106)", "assay": "binding, biolayer interferometry", "Kd [nM]": 176}
{"Structure (SMILES)": "O=C(N[C@@H]1c2ccccc2C[C@H]1N1CCCC1)c1ccc(-c2ccnc3[nH]ccc23)nc1", "target": "ROCK1 (Homo sapiens, UniProt Q13464)", "assay": "binding, competition with immobilised ligand", "Kd [nM]": 5}
{"Structure (SMILES)": "C=C(c1ccccc1)[C@H](N)P(=O)(O)O", "target": "PAL1 (Petroselinum crispum, UniProt P24481, Y110F)", "assay": "ITC", "Kd [nM]": 19000}
